Published values gathered from unrelated publications.
Every numbered part comes from another study and shows a few of its results, in no order. Positions count from the first letter of the parent shown.

Set 1
Target: MAFG, bZIP domain (human)
Method: DHFR protein complementation
Sample: yeast
Notes: single substitutions, most at no-binding floor
Relative to: wild-type JUN-FOS pair
Direction: higher = stronger binding
Starting sequence: JUN, bZIP domain (human); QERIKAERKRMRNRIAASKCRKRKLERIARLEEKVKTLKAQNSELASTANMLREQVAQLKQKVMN; partner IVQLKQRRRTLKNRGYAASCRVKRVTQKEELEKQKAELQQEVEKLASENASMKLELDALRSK
Variant	binding fitness [natural log]
L52N	-1.48
R53D	-1.56
M51T	-1.5
L45I	-1.52
T37L	-1.32
E33V	-1.57
Q55L	-1.48
A49H	-1.48
N42S	-1.46
R30P	-1.46
N42D	-1.61
L52D	-1.42
A57P	-1.5
I28D	-1.32
I28W	-1.25
K34V	-1.46
K36V	-1.45
I28Q	-1.54
S43F	-1.19
A40E	-1.45
S43H	-1.34

Set 2
Target: RNA binding protein fox-1 homolog 2, RRM domain, GST-SBP tag (RBFOX2, Homo sapiens, UniProt O43251-10, residues 100-194)
Method: RNA Bind-n-Seq
Form: RNA
Sample: in vitro
Concentration: 365 nM
Notes: natural RNA segment, single round, ends assumed
Relative to: no-protein control
Direction: higher = stronger binding
Shared flanks, not repeated: GGGAGUUCUACAGUCCGACGAUC … UGGAAUUCUCGGGUGCCAA
Residues (chain): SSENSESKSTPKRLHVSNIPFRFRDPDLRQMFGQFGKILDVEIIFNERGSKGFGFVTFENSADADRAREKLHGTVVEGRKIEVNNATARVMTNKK
Strand	RBNS enrichment (R)
GACACUAGAUGGCUGUGAAUGUGAUCCGCUCACUGACACUCUGUAAAGGCCAAUCAAUGCACUGUCUGUCUCUCCUUUUAGGAGUAAGCCAUCCCACAAGUUCUAUACCA	0.369
UCUCUCCCUCUCUCCCUCUCUCCCUCUCUCUCUCUCCUGCACCUGCUUGAGUAGGACCAUUUAAACACCUAUUAUGCUAUUCUUGAGAUGGGAUUUUUCAAAGCGGCCAA	1.14
GAAAGCCAGAGAGUCACUCUUACCUCCCUGUCUGCUUACUCACCCACUCUGUCCUUUCCUCACCAACUAACAUGUGCCAGCCAGGCAGAGUCUUGUGCUGUUCCCAGAAC	0.667
AUGCCAAGUUGGAUCCCCCGAAUGAAGCAGAUGUGGCUGUGGUGUGACCCUUGCUCCCUGCUACACAGAGCAUCGCAGGGCUGGCCUGUGUGGUUUCCAGAUGAGGGUCU	0.794
AUUUAUGUUUCUUUGGAUCCUCAUUGCCUCAAAGCAGCAUACUUAAUUUUUGUUUAUUUAUUGUGAGCUUUUUACUUUAAGAUUUUACAUGAGUAAUCAAAAUUAAAUUA	0.479
CAUUGAGACUUAGUGACCAUCUGGGUCCAUGUUAAUAUCAUAUAAUAGCAAAUUCCUUUCAGAAGUCUCUAGCUUUAGUGCUAAAAUACUACUGAGAAAGGAACUAGGUA	0.32
CAGGCUGGCCUCGAACUUGGAUAUCCACCUGCCUCUCCCUCCCGAGUGCUGGGUUUAAAGGUAUGCACCACCACCACCACCUGGUUUUAUGUUAUUUUCUAAAAUUGUCA	0.67
GGAUCCUCGGGACUCCCCAGACAGGCGUGUGUGAGUGUGUUCUGUCAUGCAGCCUCAGCCCAGGCUAACCCAGUCAGUGUUUUCACCACGUCUGACCUUUCUCUCUGCAC	0.293

Set 3
Target: RING finger protein unkempt homolog, zinc fingers 1-6, GST-SBP tag (UNK, Homo sapiens, UniProt Q9C0B0, residues 30-357)
Chain of UniProt Q9C0B0 (30-357, looked up): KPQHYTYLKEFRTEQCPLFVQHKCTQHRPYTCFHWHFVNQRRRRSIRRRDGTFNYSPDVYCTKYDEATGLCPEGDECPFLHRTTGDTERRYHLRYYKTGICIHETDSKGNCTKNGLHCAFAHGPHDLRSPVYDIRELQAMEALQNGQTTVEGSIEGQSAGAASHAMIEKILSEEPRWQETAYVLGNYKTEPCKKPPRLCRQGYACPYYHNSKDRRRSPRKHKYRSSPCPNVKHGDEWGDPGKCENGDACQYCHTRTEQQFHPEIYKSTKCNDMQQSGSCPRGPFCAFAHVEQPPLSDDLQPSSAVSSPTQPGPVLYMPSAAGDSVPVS
Method: RNA Bind-n-Seq
Form: RNA
Sample: in vitro
Concentration: not given
Notes: RNA with constant flanks, human and mouse sites, ends assumed
Relative to: input RNA pool
Direction: higher = stronger binding
Shared flanks, not repeated: GGGAGUUCUACAGUCCGACGAUC … CAACAGAGGAUUGAGCAUCA
Strand	bound/input enrichment [ratio]
AUGUGCCUGUACUUAAAAAAAAAAAAAUGGUACACCAGAAAAGGACUGGCAGUCUACUACCAUAGUCAAACUUCACCUUAAUUUCGACAUGACUUUUGGAAGCAGGAAGAAAGCUACAAA	0.603
CUUAUGUAUCUACUAGCAUAUCCACAAAAGCCCAUGGUUAAAACAAAAACAAUCGAGUUGAUAGAUUUUGAGAAGUUGCCGGCUGGCCAGAACGCAACUGUUGCCGUGAUGAGCUACAGC	0.658
GUGCACACGGGCGAGCGGCCCCACCAGUGCCCCGAGUGCGGGAAGCGCUUUACCAAUAAGCCCUAUCUGACUUCGCACCGGCGCAUCCACACCGGCGAGAAGCCCUACCCGUGCAAAGAG	0.102
UUCUGGUUCAGAUCUGUGCCUUUGGCUGCAACAAGUAUGUUGAUUACUCAAGGAUUAAUUAGUAAAGGAAUACUUUCAAGUCAUCCCAAAUAUGGUUCCAUCCCUAAACUUAUACUUGCU	0.946
CUGAAAUUCUCUCCAAUUAAAUAUGGCUACCAGCCUCGCAGGAAUUUUUGGCCAGCAAGAUUAGCUACGAGACUCUUAAAACUUCGCUAUCUCAUACUAGGAUCGGCUGUUGGGGGUGGC	0.996
UCUUCAACCUGAUCAAGAGGCCAGAUGAUGAGCAAAGGCAAAUGAUACUGACAGGAUGUGUGGCAUUUGCACGUCAUGUUGGACCAACACGUGUGGAGGCUGAACUUUUACCUCAGUGUU	0.0895
GGAGAGGCCCUGCAUUGCCAGCUGUCCGUUCCUCCAUUCAUCUGUUUCUUCUGCUGCCCUUAGUUUGAUCCUCACCAUCCACGUUUUGGCUUCCGUUUGCCCUUAUCAAAGGGUCUCUGC	0.407
AGUAAACCUGGCAGCUAUAGAAUACACUAUGUGCAUUUAUAAUAGCUAUUUUAUAUAUUGUAGUAUCAACAUUUUUAAAUUAAAUGUUUUACAUUCACAAGUGGUGGGGAGUCUUGUCAU	2.77

Set 4
Target: CCNB2, cyclin fold, Cln2 fusion (human)
Method: yeast growth competition, sequencing
Sample: yeast
Notes: strong parent motif
Relative to: not given
Direction: higher = stronger binding
Starting sequence: PKMYT1 docking peptide (human); SFEPRNLLSLFED
Variant	normalised enrichment score
R5T	0.753
E3Y	1.91
E12K	-0.194
L7K	-0.602
P4A	0.795
L10W	1.15
S9E	1.33
F2I	1.54
E12L	0.0542
R5Y	0.169
L8E	-1.74
R5A L7A	-0.952
F11W	0.0412
P4G	0.136
F11E	-0.203
F11P	-0.211
F2S	-0.284
N6K	0.171
E12T	0.375
F2R	0.233
S9F	1.2
